# Measured values collected from several papers.
# A part holds a random share of what one study measured.
# Chain of UniProt P10721 (whole entry, unmodified, looked up): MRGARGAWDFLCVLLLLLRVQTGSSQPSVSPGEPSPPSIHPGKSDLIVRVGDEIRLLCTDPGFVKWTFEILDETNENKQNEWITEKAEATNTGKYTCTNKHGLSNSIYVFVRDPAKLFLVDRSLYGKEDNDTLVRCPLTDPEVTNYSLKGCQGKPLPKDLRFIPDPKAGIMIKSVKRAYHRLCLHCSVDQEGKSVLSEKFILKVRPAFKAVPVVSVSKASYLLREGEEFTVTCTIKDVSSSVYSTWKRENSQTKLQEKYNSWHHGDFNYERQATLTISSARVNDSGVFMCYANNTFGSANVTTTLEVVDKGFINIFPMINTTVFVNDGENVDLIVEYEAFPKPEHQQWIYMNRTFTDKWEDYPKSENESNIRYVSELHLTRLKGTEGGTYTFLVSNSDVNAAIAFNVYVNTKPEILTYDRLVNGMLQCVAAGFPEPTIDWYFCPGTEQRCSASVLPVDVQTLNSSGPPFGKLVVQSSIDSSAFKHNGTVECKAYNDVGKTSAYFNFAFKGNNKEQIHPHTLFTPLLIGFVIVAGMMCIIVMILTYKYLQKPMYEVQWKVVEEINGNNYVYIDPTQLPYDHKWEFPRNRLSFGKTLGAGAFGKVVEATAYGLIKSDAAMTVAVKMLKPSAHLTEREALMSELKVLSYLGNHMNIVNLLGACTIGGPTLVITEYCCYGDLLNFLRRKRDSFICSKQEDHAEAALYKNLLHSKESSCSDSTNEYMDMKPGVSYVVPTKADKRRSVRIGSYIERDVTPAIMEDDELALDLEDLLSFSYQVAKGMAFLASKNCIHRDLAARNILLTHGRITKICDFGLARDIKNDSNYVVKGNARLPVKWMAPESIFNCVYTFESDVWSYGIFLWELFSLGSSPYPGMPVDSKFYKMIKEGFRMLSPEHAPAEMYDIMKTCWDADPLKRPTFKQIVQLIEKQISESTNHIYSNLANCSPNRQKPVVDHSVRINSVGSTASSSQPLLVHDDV
# Chain of UniProt Q13177 (whole entry, looked up): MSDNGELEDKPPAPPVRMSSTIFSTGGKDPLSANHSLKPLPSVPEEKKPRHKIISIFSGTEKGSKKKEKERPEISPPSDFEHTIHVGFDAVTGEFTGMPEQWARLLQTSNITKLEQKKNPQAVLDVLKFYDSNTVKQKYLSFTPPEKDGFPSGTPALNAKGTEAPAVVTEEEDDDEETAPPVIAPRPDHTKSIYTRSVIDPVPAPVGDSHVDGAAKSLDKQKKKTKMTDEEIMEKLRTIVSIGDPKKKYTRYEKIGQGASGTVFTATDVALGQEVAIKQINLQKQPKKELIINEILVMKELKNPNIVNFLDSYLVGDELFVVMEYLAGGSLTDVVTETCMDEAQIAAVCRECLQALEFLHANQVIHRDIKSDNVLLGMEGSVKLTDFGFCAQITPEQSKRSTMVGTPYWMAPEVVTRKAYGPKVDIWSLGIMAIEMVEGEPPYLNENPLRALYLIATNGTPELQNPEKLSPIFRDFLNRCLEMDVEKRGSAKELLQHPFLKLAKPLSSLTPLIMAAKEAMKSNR
# Chain of UniProt Q9UKE5 (whole entry, looked up): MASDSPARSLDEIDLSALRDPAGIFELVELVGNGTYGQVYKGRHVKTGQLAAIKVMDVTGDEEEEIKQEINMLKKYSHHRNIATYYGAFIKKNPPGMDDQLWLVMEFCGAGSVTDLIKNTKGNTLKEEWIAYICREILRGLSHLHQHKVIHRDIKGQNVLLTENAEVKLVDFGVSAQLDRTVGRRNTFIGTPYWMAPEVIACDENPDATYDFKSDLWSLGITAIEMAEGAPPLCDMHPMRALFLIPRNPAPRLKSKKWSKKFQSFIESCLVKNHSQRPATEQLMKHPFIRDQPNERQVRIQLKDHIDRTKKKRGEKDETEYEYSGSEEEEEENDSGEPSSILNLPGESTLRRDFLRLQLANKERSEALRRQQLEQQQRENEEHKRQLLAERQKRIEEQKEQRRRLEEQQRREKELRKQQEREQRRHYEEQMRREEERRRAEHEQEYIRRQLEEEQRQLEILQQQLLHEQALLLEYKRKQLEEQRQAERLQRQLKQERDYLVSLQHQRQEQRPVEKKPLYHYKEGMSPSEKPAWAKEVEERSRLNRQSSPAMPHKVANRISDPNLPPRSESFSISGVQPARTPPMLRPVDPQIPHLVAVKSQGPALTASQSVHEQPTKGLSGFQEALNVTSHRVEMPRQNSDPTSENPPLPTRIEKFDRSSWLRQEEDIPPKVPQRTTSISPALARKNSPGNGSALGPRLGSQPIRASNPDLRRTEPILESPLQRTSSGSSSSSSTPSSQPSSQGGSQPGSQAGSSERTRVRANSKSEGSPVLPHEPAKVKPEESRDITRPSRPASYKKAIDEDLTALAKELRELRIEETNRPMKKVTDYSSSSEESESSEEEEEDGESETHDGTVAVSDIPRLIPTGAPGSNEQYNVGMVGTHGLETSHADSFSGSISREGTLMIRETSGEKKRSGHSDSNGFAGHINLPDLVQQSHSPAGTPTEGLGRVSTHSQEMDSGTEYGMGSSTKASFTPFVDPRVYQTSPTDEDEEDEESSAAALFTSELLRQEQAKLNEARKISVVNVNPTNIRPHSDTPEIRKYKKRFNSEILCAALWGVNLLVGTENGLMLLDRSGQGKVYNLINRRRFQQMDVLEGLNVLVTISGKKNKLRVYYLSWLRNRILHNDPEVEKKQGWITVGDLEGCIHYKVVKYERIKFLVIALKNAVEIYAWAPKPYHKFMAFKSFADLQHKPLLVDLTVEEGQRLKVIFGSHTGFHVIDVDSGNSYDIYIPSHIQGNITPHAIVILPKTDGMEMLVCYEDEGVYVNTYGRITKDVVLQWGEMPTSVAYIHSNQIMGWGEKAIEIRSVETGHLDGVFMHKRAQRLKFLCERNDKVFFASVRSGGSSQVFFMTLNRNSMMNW
# Chain of UniProt P21860 (whole entry, looked up): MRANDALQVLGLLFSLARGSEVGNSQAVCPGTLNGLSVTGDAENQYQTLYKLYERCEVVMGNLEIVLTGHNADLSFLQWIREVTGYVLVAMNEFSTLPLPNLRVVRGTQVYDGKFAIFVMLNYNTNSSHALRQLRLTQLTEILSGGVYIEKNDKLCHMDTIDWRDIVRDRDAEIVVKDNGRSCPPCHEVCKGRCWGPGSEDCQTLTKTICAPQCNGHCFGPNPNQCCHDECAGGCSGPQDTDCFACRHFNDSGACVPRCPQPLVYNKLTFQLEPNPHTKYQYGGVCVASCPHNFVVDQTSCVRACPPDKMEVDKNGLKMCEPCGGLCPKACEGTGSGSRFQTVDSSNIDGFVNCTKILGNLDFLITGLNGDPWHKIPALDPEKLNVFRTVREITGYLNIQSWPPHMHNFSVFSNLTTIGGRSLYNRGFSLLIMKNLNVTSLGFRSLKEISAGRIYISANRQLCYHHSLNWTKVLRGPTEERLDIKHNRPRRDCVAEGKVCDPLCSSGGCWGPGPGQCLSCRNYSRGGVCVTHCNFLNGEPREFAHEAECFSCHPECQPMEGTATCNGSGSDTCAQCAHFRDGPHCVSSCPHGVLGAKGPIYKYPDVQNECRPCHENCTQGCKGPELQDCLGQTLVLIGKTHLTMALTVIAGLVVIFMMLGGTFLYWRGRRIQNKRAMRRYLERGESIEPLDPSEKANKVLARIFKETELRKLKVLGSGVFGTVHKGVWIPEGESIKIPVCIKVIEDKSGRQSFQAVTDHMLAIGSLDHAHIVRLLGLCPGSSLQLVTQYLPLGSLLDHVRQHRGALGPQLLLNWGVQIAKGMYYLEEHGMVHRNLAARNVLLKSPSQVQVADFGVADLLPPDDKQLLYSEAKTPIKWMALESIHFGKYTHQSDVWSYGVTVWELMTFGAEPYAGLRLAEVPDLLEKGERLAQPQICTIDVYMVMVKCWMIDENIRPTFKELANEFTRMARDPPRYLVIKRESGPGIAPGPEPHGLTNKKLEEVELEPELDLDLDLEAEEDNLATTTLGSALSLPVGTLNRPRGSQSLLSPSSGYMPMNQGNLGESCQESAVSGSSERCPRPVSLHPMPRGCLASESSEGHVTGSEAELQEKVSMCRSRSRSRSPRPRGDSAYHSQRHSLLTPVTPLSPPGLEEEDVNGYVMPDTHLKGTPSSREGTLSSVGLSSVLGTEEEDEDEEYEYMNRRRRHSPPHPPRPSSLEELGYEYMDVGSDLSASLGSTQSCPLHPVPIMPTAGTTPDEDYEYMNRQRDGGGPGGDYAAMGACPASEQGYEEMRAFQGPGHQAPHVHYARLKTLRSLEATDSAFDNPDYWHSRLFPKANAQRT

# Study 1
# Medium: hydrocarbon/water
Structure (SMILES),logD
CCC[C@H]1NC(=O)CSC[C@@H](C(=O)OCC)N(C)C(=O)[C@H](CC(C)C)NC(=O)[C@H](C)N(C)C(=O)[C@H](CC(C)C)NC(=O)[C@H](C)N(C)C(=O)[C@@H]2CCCN2C(=O)[C@H](CC(C)C)NC(=O)CN(C)C1=O,-0.124
CCCN1CC(=O)N[C@@H](CC(C)C)C(=O)N(C)[C@@H](C)C(=O)N[C@@H](CC(C)C)C(=O)N(C)[C@H](C(=O)OCC)CSCC(=O)N[C@@H](CC(C)C)C(=O)N(C)[C@@H](C)C(=O)N[C@@H](CC(C)C)C(=O)N2CCC[C@@H]2C1=O,2.67
CC(C)C[C@@H]1NC(=O)[C@H](C)N(C)C(=O)[C@H](CC2CCCCC2)NC(=O)[C@H](CC(C)C)N(C)C(=O)[C@H]2CCCN2C(=O)[C@H](CC2CCCCC2)NC(=O)[C@H](C)N(C)C(=O)[C@H](C2CCCCC2)NC(=O)Cn2cc(nn2)CN(C)C1=O,3.02
CCCN1CC(=O)N[C@@H](CC(C)C)C(=O)N2CCC[C@@H]2C(=O)N(C)[C@@H](C)C(=O)N[C@@H](CC2CCCCC2)C(=O)N(C)[C@@H](C)C(=O)N[C@@H](CC(C)C)C(=O)N(C)[C@H](C(=O)OCC)CSCC(=O)N[C@@H](CC(C)C)C1=O,3.02
CCCCCN1CC(=O)NC(CC(C)C)C(=O)N(C)C(C)C(=O)NC(C)C(=O)N2CCCC2C(=O)N(CC)CC(=O)NC(CC(C)C)C(=O)N(C)C(C)C(=O)NC(CC(C)C)C(=O)N2CCCC2C1=O (stereo not drawn),1.93
CC(C)C[C@@H]1NC(=O)CN(CCCOC(C)C)C(=O)[C@H](C)NC(=O)[C@H](CC(C)C)N(C)C(=O)[C@H]2CCCN2C(=O)[C@H](Cc2ccccc2)NC(=O)CN(CC2CCOCC2)C(=O)[C@H](C)NC(=O)[C@H](CC(C)C)N(C)C(=O)[C@H]2CCCN2C1=O,1.92
CCC[C@@H]1NC(=O)[C@H](C)N(C)C(=O)[C@H](CC(C)C)NC(=O)Cn2cc(nn2)CN(C)C(=O)[C@H](CC(C)C)NC(=O)[C@H](C)N(C)C(=O)[C@H](CC(C)C)NC(=O)[C@H](CCC)N(C)C(=O)[C@H]2CCCN2C1=O,0.14
CC(C)C[C@@H]1NC(=O)[C@H](C)N(C)C(=O)[C@H](CC2CCCCC2)NC(=O)[C@H](CC(C)C)N(C)C(=O)[C@H]2CCCN2C(=O)[C@H](CC(C)C)NC(=O)[C@H](C)N(C)C(=O)[C@H](CC(C)C)NC(=O)Cn2cc(nn2)CN(C)C1=O,1.96
CCN1CC(=O)NC(CC(C)C)C(=O)N(C)C(C)C(=O)NC(CC(C)C)C(=O)N2CCCC2C(=O)N(CC2CCCCC2)CC(=O)NC(CC(C)C)C(=O)N(C)C(C)C(=O)NC(Cc2ccccc2)C(=O)N2CCCC2C1=O (stereo not drawn),3.17
CCC[C@@H]1NC(=O)[C@H](C)N(C)C(=O)[C@H](CC(C)C)NC(=O)Cn2cc(nn2)CN(C)C(=O)[C@H](CC(C)C)NC(=O)[C@H](C)N(C)C(=O)[C@H](CC(C)C)NC(=O)CN(CC)C(=O)[C@H]2CCCN2C1=O,-1.2
CCC[C@@H]1C(=O)N(C)[C@@H](C)C(=O)N[C@@H](CC(C)C)C(=O)N2CCC[C@@H]2C(=O)N(C)[C@@H](C)C(=O)N[C@@H](CC(C)C)C(=O)N1C,0.499

# Study 2
# Structure (SMILES): CN(c1ccnc(CNc2nc(Nc3ccc4c(c3)CC(=O)N4)ncc2C(F)(F)F)n1)S(C)(=O)=O
# Effect on: cell-free assay
# Technique: competition with immobilised ligand
# Concentration: 1 µM
target,remaining binding [%]
"DDR1 (Homo sapiens, UniProt Q08345)",80
"TAOK1 (Homo sapiens, UniProt Q7L7X3)",3.7
"EPHB1 (Homo sapiens, UniProt P54762)",99
"PAK2 (Homo sapiens, UniProt Q13177)",83
"NEK10 (Homo sapiens, UniProt Q6ZWH5)",90
"KIT (Homo sapiens, UniProt P10721, V559D/V654A)",67
"PIK3CA (Homo sapiens, UniProt P42336, H1047Y)",85
"DYRK1A (Homo sapiens, UniProt Q13627)",19
"AKT1 (Homo sapiens, UniProt P31749)",100
"TNIK (Homo sapiens, UniProt Q9UKE5)",77
"EGFR (Homo sapiens, UniProt P00533, G719S)",89
"CDKL5 (Homo sapiens, UniProt O76039)",87
"NEK11 (Homo sapiens, UniProt Q8NG66)",100
"ERBB3 (Homo sapiens, UniProt P21860)",78
"NLK (Homo sapiens, UniProt Q9UBE8)",98
"Ribosomal protein S6 kinase alpha-4, C-terminal kinase domain (RPS6KA4, Homo sapiens, UniProt O75676)",72
"DCLK3 (Homo sapiens, UniProt Q9C098)",43
"PRKCD (Homo sapiens, UniProt Q05655)",78
"CLK1 (Homo sapiens, UniProt P49759)",4.4
"PRKG1 (Homo sapiens, UniProt Q13976)",100
"KIT (Homo sapiens, UniProt P10721, L576P)",66
"CIT (Homo sapiens, UniProt O14578)",99
"SGK3 (Homo sapiens, UniProt Q96BR1)",87
"HIPK2 (Homo sapiens, UniProt Q9H2X6)",54
"SRPK2 (Homo sapiens, UniProt P78362)",40

# Study 3
# Target: Tyrosine-protein kinase Tec (TEC, Homo sapiens, UniProt P42680)
# Chain of UniProt P42680 (whole entry, looked up): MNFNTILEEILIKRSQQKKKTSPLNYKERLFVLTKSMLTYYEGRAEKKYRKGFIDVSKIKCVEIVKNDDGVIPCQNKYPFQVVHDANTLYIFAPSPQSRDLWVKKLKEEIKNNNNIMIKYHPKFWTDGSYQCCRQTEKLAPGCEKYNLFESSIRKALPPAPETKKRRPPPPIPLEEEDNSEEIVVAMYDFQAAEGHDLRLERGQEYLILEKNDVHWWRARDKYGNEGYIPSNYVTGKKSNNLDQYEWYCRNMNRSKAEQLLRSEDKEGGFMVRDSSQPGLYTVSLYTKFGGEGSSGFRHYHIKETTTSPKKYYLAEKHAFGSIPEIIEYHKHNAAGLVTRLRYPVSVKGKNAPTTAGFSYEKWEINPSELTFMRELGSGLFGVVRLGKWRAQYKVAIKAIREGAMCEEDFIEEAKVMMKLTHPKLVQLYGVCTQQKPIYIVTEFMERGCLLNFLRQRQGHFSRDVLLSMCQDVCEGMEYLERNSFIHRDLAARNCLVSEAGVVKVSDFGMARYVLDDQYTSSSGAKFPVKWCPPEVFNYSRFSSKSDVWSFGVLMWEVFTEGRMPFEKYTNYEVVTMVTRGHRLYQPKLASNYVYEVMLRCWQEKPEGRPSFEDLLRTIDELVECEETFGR
# Effect on: enzyme activity
# Action: inhibitor
# Concentration: 0.5 µM
# Relative to: control
SMILES,remaining activity
Cn1nc2c3c(cccc31)C(=O)c1ccccc1-2,102%
COc1cc2ncnc(Nc3cccc(Cl)c3)c2cc1OC,126%
CCN(CC)CCNC(=O)c1c(C)[nH]c(/C=C2\C(=O)Nc3ccc(F)cc32)c1C,94.8%
Cc1cn(-c2cc(NC(=O)c3ccc(C)c(Nc4nccc(-c5cccnc5)n4)c3)cc(C(F)(F)F)c2)cn1,88.2%
c1ccc(-c2cnc(Nc3ccc(OCCN4CCCC4)cc3)s2)cc1,106%
COc1cc2ncnc(Nc3ccc(O)c(Br)c3)c2cc1OC,108%
Cc1cc2ncc(-c3ccccc3)nc2cc1C,98.1%
Nc1cccc(-c2cc3c(Oc4cccc(O)c4)ncnc3[nH]2)c1,108%
O=C1C(Cl)=C(N2C(=O)CCC2=O)C(=O)c2ccccc21,101%
N#C/C(=C\c1ccc(O)c(O)c1)C(=O)NCc1ccccc1,123%
O=C(Nc1cccc(Nc2nccc(Nc3cccc(C(F)(F)F)c3)n2)c1)C1CC1,158%
COc1cc2c(cc1OC)-c1[nH]nc(Nc3cccc(F)c3)c1C2,95%
c1ccc(-c2[nH]ncc2-c2ccnc3ccccc23)nc1,106%
Cc1nc2cc3nc(-c4cccs4)cnc3cc2n1C,158%
O=C(NC(NC(=S)Nc1ccc(F)c([N+](=O)[O-])c1)C(Cl)(Cl)Cl)C(c1ccccc1)c1ccccc1 (stereo not drawn),201%
C[C@@H]1CCN(C(=O)CC#N)C[C@@H]1N(C)c1ncnc2[nH]ccc12,95.4%
Ic1cccc(CSc2nnc(-c3ccncc3)o2)c1,106%
CCOc1nc(NC(=O)Cc2cc(OC)ccc2OC)cc(N)c1C#N,99.2%
O=C1c2ccccc2-c2n[nH]c3cccc1c23,102%
CCN(CC)C(=O)c1ccc(Nc2nc(OCC3CCCCC3)c3[nH]cnc3n2)cc1,63%
CCN(CC)CCNC(=O)c1c(C)[nH]c(/C=C2\C(=O)Nc3ccc(Cl)cc32)c1C,102%
N#Cc1c(NC(=O)c2cccc3ccccc23)sc2c1CCCC2,111%
O=c1cc(-c2cccc3c2Sc2ccccc2S3)oc(N2CCOCC2)c1,198%
CN([C@@H](Cc1ccc(OS(=O)(=O)c2cccc3cnccc23)cc1)C(=O)N1CCN(c2ccccc2)CC1)S(=O)(=O)c1cccc2cnccc12,98.9%

# Study 4
# Structure (SMILES): CC(C)CN(C)c1nc(N)c(C(=O)N=C(N)N)nc1Cl
# Effect on: β-arrestin recruitment
# Action: agonist
# Technique: PRESTO-Tango
# Concentration: 10 µM
# Relative to: untreated
target,fold over basal
"Nociceptin receptor (OPRL1, Homo sapiens, UniProt P41146)",0.74
"PTH1R (Homo sapiens, UniProt Q03431)",0.48
"G-protein coupled receptor 151 (GPR151, Homo sapiens, UniProt Q8TDV0)",1.69
"PTGFR (Homo sapiens, UniProt P43088)",0.93
"GPR3 (Homo sapiens, UniProt P46089)",0.95
"FFAR3 (Homo sapiens, UniProt O14843)",0.57 fold
"Probable G-protein coupled receptor 82 (GPR82, Homo sapiens, UniProt Q96P67)",1.13
"FPR1 (Homo sapiens, UniProt P21462)",0.59 fold
"Adhesion G protein-coupled receptor E5 (Homo sapiens, UniProt P48960)",0.64
"Mas-related G-protein coupled receptor member G (MRGPRG, Homo sapiens, UniProt Q86SM5)",0.82
"VIPR2 (Homo sapiens, UniProt P41587)",1.25 fold
"F2R (Homo sapiens, UniProt P25116)",0.99
"G protein-coupled receptor 88 (Homo sapiens, UniProt Q9GZN0)",1.53
"P2Y purinoceptor 1 (P2RY1, Homo sapiens, UniProt P47900)",0.5
"AGTR2 (Homo sapiens, UniProt P50052)",1.28

# Excerpt of the above (study 2):
target,remaining binding [%]
"EPHB1 (Homo sapiens, UniProt P54762)",99
"PAK2 (Homo sapiens, UniProt Q13177)",83
"NEK10 (Homo sapiens, UniProt Q6ZWH5)",90
"KIT (Homo sapiens, UniProt P10721, V559D/V654A)",67
"PIK3CA (Homo sapiens, UniProt P42336, H1047Y)",85
